Measurements collected from several papers.
Every numbered part comes from another study and shows a few of its results, in no order. Substitutions count along the parent as printed.

Set 1 — target: CCNF, cyclin fold, Cln2 fusion (human); method: yeast growth competition, sequencing; matrix: yeast; notes: strong parent motif; baseline: not given; direction: higher = stronger binding
Parent: RBL1 docking peptide (human); GSAKRRLFGEDPP
For `GSAKRRLFGKDPP [E10K]`, “normalised enrichment score” read 5.95.
`GSAKRRLFGEDIP [P12I]`: “normalised enrichment score” 6.87.
For `GSAKRVLFGEDPP [R6V]`, “normalised enrichment score” read 5.54.
`GGAKRRLFGEDPP [S2G]` — result for “normalised enrichment score”: 6.89.

Set 2 — method: RNA Bind-n-Seq; form: RNA; matrix: in vitro; concentration: 20 nM; notes: 6-mer, flanks averaged, single round; together with: 150 mM LiCl; baseline: input library; direction: higher = stronger binding
Target: TAR DNA-binding protein 43, full length, His tag (TARDBP, Homo sapiens, UniProt Q13148, residues 1-414)
For `CGUACA`, “6-mer enrichment (R)” read 0.829.
`UGCCCU` — result for “6-mer enrichment (R)”: 1.11.
Under “6-mer enrichment (R)”, `UACCUC` is recorded as 0.9.
`GGUACA`: “6-mer enrichment (R)” 0.917.
`GAUUGU` — result for “6-mer enrichment (R)”: 1.04.
`UGAAUG` — result for “6-mer enrichment (R)”: 1.49.
Under “6-mer enrichment (R)”, `UCGAUG` is recorded as 0.901.

Set 3 — method: RNA Bind-n-Seq; form: RNA; matrix: in vitro; concentration: 365 nM; baseline: no-protein control; direction: higher = stronger binding
Target: RNA binding protein fox-1 homolog 2, RRM domain, GST-SBP tag (RBFOX2, Homo sapiens, UniProt O43251-10, residues 100-194)
Notes: natural RNA segment, single round, ends assumed
For `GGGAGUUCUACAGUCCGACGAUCACUUGUUUGCACGACCACUUCCAGCUUGCUGCUUCCUUCAGUUCCCCAGGCUCCUCCUCCAAAUGCCAGCUGUGCCCACAAGCUGUUCUUAGGGCUCACACUCGCCUUUUUGGAAUUCUCGGGUGCCAA`, “RBNS enrichment (R)” read 0.988.
For `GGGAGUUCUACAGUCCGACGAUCCAUCUUUAGAUGCAUUUCAGAGCCAAUGAUGAUAUUUGCUUUAGAUAAUUAUUAUAUUAUUAUAAAUAUAGCCAUAUUAUUUUGAAUUCAAAUAAAUUUCUAUACUGGUAUGGAAUUCUCGGGUGCCAA`, “RBNS enrichment (R)” read 1.08.
For `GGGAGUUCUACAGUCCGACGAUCUGUUUCAUGGCAACACUGGAUAAUGGCUUUGUGAAAUUUAAAAAAUUUUUGUAGCGACUGUAAACAGAAAUGCCAAAUUGAUGGUUAAUUGUUGCUGCUUCAAAAAUAAGUGGAAUUCUCGGGUGCCAA`, “RBNS enrichment (R)” read 0.49.
`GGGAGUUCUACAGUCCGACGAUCAGAAGAGUUAACUUGUCAAAGCAGAAUGGUUCUCUUUGACCCACUCUGGUCUAUUGUGUAAAUAUUUAUUUAGACUAUUUUAAUAAUACAUAUUAUUUACCCCACUGUAAUGGAAUUCUCGGGUGCCAA`: “RBNS enrichment (R)” 0.631.
Under “RBNS enrichment (R)”, `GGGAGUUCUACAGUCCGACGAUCGGCCCUGCCAGUGGGGAAGGAGGCCAAGCAGUGCCUGCCUAUGAAAUUUCAACUUUUCCUUUCAUACGUCUUUAUUACCCAAGUCUUCUCCCGUCCAUUCCAGUCAAAUCUGGAAUUCUCGGGUGCCAA` is recorded as 0.364.

Other studies, line by line
The fold induction of `PhoQ, residues 284 288 289 292 302 303 SSCLAV` is reported as 14.8 (PhoP, residues 12 14 15 18 19 LHSVQ (Escherichia coli, UniProt P23836); Sort-seq, measured: YFP reporter; E. coli; PhoQ-PhoP variant library, together with: 10 µM Mg2+; baseline: high Mg2+ state, higher = stronger signaling).

Repeated from above (set 3):
`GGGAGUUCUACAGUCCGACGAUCAGAAGAGUUAACUUGUCAAAGCAGAAUGGUUCUCUUUGACCCACUCUGGUCUAUUGUGUAAAUAUUUAUUUAGACUAUUUUAAUAAUACAUAUUAUUUACCCCACUGUAAUGGAAUUCUCGGGUGCCAA`: “RBNS enrichment (R)” 0.631.
Under “RBNS enrichment (R)”, `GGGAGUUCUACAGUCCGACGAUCGGCCCUGCCAGUGGGGAAGGAGGCCAAGCAGUGCCUGCCUAUGAAAUUUCAACUUUUCCUUUCAUACGUCUUUAUUACCCAAGUCUUCUCCCGUCCAUUCCAGUCAAAUCUGGAAUUCUCGGGUGCCAA` is recorded as 0.364.
